Assay results collected from several papers.
Numbered parts are unrelated; each lists some results of a single study. Positions count from the first letter of the parent shown.

Study 1
Target: PABPC1L2, full length, GST fusion (mouse, UniProt A0ABA7IW68)
Technique: RNAcompete
Molecule type: RNA
Sample: in vitro
Concentration: 20 nM
Setting: 7-mer, probes averaged, single round
Relative to: mean of 7-mers
Direction: higher = stronger binding
Measurement: 7-mer Z-score
Residues (chain): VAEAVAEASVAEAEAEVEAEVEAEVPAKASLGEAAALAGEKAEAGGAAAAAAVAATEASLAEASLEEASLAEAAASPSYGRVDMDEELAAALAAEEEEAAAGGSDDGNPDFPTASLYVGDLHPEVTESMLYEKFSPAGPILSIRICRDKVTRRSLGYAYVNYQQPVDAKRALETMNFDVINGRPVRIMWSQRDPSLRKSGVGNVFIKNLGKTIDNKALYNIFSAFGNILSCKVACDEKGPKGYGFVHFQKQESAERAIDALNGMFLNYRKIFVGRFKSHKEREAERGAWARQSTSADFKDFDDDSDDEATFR
CAUAAUU: -0.182
AGAAAUU: 1.25
GAAACCC: -0.0881
UUCUCCU: -0.479
AUAGCCU: -0.0627
AGAAACU: 0.805
UAAACCA: 0.497
CGCGUAA: -0.18
CUUCGCG: -0.219
CAACAAC: 0.0551
AAUCACC: -0.0319
GACAACA: 0.448
CUCAGAG: -0.164
CCAAUAU: -0.2
GUGGAAU: 0.0569
UCACAGA: 0.0551
GAGAUGA: 0.0515
GGAGGAA: 0.492
CUGGUUC: -0.338
UAUUAUA: -0.151
UGCCUAG: -0.19

Study 2
Target: CCNA2, cyclin fold, Cln2 fusion (human)
Technique: yeast growth competition, sequencing
Sample: yeast
Setting: strong parent motif
Relative to: not given
Direction: higher = stronger binding
Measurement: normalised enrichment score
Starting sequence: CDC6 docking peptide (human); TLKGRRLVFDNQL; partner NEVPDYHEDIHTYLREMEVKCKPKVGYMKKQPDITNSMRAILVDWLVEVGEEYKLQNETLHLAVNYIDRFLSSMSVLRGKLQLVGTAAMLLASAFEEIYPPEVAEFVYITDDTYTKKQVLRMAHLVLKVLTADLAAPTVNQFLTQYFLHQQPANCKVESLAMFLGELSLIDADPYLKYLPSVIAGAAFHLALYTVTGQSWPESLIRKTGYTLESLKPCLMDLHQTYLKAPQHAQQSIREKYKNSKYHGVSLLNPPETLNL
TLKGRRLVFDNML [Q12M]: 3.92
TWKGRRLVFDNQL [L2W]: 3.11
TLKGRRLVFDNEL [Q12E]: 3.36
TLKIRRLVFDNQL [G4I]: 2.48
FLKGRRLVFDNQL [T1F]: 2.58
TLKGRSLVFDNQL [R6S]: 0.414
TLQGRRLVFDNQL [K3Q]: 1.55
TLKGRRLLFDNQL [V8L]: 2.8
TLKGRRLVRDNQL [F9R]: 0.442
TLKGRRLDFDNQL [V8D]: 4.23
TLKGRRLVFNNQL [D10N]: 2.79
TLKGRRLYFDNQL [V8Y]: 2.81
TLKGRRLVFDNQR [L13R]: 3.22
TLKGRFLVFDNQL [R6F]: -0.156
TLKGRRLVWDNQL [F9W]: 1.59
THKGRRLVFDNQL [L2H]: 2.94
TLKGRRLVFDYQL [N11Y]: 2.84
TLKWRRLVFDNQL [G4W]: 1.71
TLKGWRLVFDNQL [R5W]: -0.198
TLKGRRLMFDNQL [V8M]: 2.32
TLKGRRWVFDNQL [L7W]: 1.77
TLKGPRLVFDNQL [R5P]: -0.473
TLKGKRLVLDNQL [R5K F9L]: 0.445

Study 3
Target: ATF5, bZIP domain (human)
Technique: DHFR protein complementation
Sample: yeast
Setting: single substitutions, most at no-binding floor
Relative to: wild-type JUN-FOS pair
Direction: higher = stronger binding
Measurement: binding fitness
Starting sequence: JUN, bZIP domain (human); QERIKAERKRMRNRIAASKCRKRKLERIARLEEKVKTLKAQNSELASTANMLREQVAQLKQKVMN; partner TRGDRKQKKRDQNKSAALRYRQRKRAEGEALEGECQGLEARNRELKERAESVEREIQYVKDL
V35E: -1.27 natural log
E32D: -1.54 natural log
E44M: -1.49 natural log
L59S: -1.53 natural log
A49D: -0.998 natural log
K39N: -1.55 natural log
L45P: -1.54 natural log
V56N: -1.39 natural log
T37P: -1.51 natural log
A46G: -1.47 natural log
K39R: -1.49 natural log
K39L: -1.44 natural log
S47H: -1.38 natural log
E44W: -1.46 natural log
E33R: -1.43 natural log
M51T: -1.24 natural log
Q55A: -1.18 natural log
A49H: -1.3 natural log
L31K: -1.43 natural log

Study 4
Target: UBE2M UBC core domain (UniProt P61081)
Sequence of UniProt P61081 (whole entry, looked up): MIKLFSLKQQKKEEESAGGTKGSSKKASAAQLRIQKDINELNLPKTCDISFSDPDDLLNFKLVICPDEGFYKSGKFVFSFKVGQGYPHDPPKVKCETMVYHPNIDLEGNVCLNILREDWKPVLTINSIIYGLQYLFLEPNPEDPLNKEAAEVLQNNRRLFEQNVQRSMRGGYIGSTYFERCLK
Technique: yeast two-hybrid
Sample: yeast
Setting: mostly zero background
Relative to: not given
Direction: higher = stronger interaction
Measurement: lacZ reporter activity
B1: RFWD3 RING domain (UniProt Q6PCD5); chain ASMDEEEGDTCTICLEQWTNAGDHRLSALRCGHLFGYRCISTWLKGQVRKCPQCNKKARHSDIVV
B2: TRIM62 RING domain (UniProt Q9BVG3); chain MACSLKDELLCSICLSIYQDPVSLGCEHYFCRRCITEHWVRQEAQGARDCPECRRTFAEPALAP
B3: RNF133 RING domain (UniProt Q8WVZ7); chain DEEINPNGDSCVICFERYKPNDIVRILTCKHFFHKNCIDPWILPHGTCPICKCDILKVLGIQ
B4: RNF19A RING domain (UniProt Q9NV58); chain ISKQIGDFIECPLCLLRHSKDRFPDIMTCHHRSCVDCLRQYLRIEISESRVNISCPECTERFNPHDIR
B5: DTX2 RING domain (UniProt Q86UW9); chain EELKVPPDEDCIICMEKLSTASGYSDVTDSKAIGSLAVGHLTKCSHAFHLLCLLAMYCNGNKDGSLQCPSCKTIYGEKTGTQ
GSDDEEIPFKCFICRQSFQNPVVTKCRHYFCESCALQHFRTTPRCYVCDQQTNGVFNPA (RNF113A RING domain (UniProt O15541)): 0
AMYLQENGIDCPKCKFSYALARGGCMHFHCTQCRHQFCSGCYNAFYAKNKC (RNF31 RING domain (UniProt Q96EP0)): 0
AVPSGLEENLCKICMDSPIDCVLLECGHMVTCTKCGKRMNECPICRQYVIRAVHVF (RFFL RING domain (UniProt Q8WZ73)): 0
B1 (RFWD3 RING domain): 0
B2 (TRIM62 RING domain): 0
NLSELTPYILCSICKGYLIDATTITECLHTFCKSCIVRHFYYSNRCPKCNIVVHQTQPLY (PCGF6 RING domain (UniProt Q9BYE7)): 0
B3 (RNF133 RING domain): 0
B4 (RNF19A RING domain): 0
FDGDVDPDLKCALCHKVLEDPLTTPCGHVFCAGCVLPWVVQEGSCPARCRGRLSAKELN (PDZRN3 RING domain (UniProt Q9UPQ7)): 0
B5 (DTX2 RING domain): 0
KETIKKTTKPCPRCHVPVEKNGGCMHMKCPQPQCRLEWCWNCGCEWNRVCMG (PRKN RING domain (UniProt O60260)): 0
YQNEVDDDLVCHICLQPLLQPLDTPCGHTFCYKCLRNFLQEKDFCPLDRKRLHFKLCKK (LNX2 RING domain (UniProt Q8N448)): 0

Study 5
Target: RNA binding protein fox-1 homolog 2, RRM domain, GST-SBP tag (RBFOX2, Homo sapiens, UniProt O43251-10, residues 100-194)
Technique: RNA Bind-n-Seq
Molecule type: RNA
Sample: in vitro
Concentration: 365 nM
Setting: natural RNA segment, single round, ends assumed
Relative to: no-protein control
Direction: higher = stronger binding
Measurement: RBNS enrichment (R)
Construct (chain): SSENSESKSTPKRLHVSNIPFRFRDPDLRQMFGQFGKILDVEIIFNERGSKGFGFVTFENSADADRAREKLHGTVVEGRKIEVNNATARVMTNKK
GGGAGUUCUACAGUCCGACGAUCAGAGCAAGCCUGAAGACGGCCCCUGGAAGACAAACCCAAGCUGAGGGAAUCCAGGCCCAGCAAGAGACAUGCCAAUGGCGACUGUAGGUCCCUCCAUGUGUGCUGACUCCUGGAAUUCUCGGGUGCCAA: 0.547
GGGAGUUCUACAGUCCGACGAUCGGCUCUACCCCAAACUCUGAGGACUACCUUACAGCUGACUUAAGUGUCUCACUAAAGCAUGAAAUGUGAAUUUUUAUUGUUGGAAAUAUAAUUUAAGGUAUUUAUGUUCUUGGAAUUCUCGGGUGCCAA: 12
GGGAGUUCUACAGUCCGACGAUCCCGUGUGUUUAGAAGCCUAAUUGUCACAUCAAGCAUCAUUGUCCCCAUGCAACAACCACCACCUUAUACAUCACUUCCUGUUUUAAGCAGCUCUAAAACAUAGACUGAAGUGGAAUUCUCGGGUGCCAA: 0.562
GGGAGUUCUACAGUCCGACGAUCAGGGCUCUGUACAGUUUUGCCAUUUCACUGUUCUGCUUUAAGCUUAGCUUAUUAGAACUCUUGGUGGAGGGUGCGUACACACAUUCCAGAAAAGGCUUCACUCGCUGGGAUGGAAUUCUCGGGUGCCAA: 0.273
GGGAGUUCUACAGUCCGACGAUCUGCCCAGCCCUGUUCUAUUCUGCAGGGUCCCUGUGUUGGAAUUCUCCCUGGGGAACCUACUUUCUGCUCAGUGAGGCUCCGGCCAGAAACCUGGAGUCCUUAUCCUCCCCUGGAAUUCUCGGGUGCCAA: 0.246
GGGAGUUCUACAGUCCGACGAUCUCUGGCUUUGAGUUUGCUUGUGGAAUUUCCUGGGCAGUUGUGUUAAAUCCGCCAGGUCACGUGCAGACAAAGCUGUGGCUGCGAGAGUUGGCUGGCCUCUUGGACCAGAAUGGAAUUCUCGGGUGCCAA: 0.392
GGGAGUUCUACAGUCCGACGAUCAGAUUAGGAUUAAAAUGGAUUUAAUCCAUUUUUAAGGCUGUGUGAAUUUUUCUAAACAAGAACCAUUUGCAAUAUGGAUUUCUUAGAGAUUAAACCAAUUAUAACUUAUUUGGAAUUCUCGGGUGCCAA: 0.457
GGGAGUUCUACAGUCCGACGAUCGCUGUGUCACUGAGGUGGUGCCCCUCUGCCUGCCUGCCCCACUGUGCUGGCAGGAGCUGACUGUGGACUGGUGGGCUCCCCUCUGGGCCAGCACAGUCCCCUCACCUCUGUGGAAUUCUCGGGUGCCAA: 1.56
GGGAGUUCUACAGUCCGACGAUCUGUAUUUGUCCUUCAUAUUCAGGAUGUGAUAUUUACAAAAUGCAGAACAGUUUAAACUUGUUAAGUCACAUUCCAGAUUAGGAGAAAAUGGGCAAUAAUCAUCUCUGUUUUGGAAUUCUCGGGUGCCAA: 0.429
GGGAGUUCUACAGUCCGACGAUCCUUUAGUUGGGUUUAUUUCCAGGUCACAGAAUUGCUGUUAACACUAGAAAACACACUUCCUGCACCAACACCAAUACCCUUUCAAAAGAGUUGUCUGCAACAUUUUUGUUUGGAAUUCUCGGGUGCCAA: 0.205
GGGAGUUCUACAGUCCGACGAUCGUCAUGUGGAAAUGGAAGUAGCCUCUUUUUGUUCUGAAAUUGAGUUUAUUCAAAGUGUAAAAGCACAUACUGCAUUUUCUGCUGAAAGAUCAUUAUGUUUAACAGGCACUUGGAAUUCUCGGGUGCCAA: 0.953
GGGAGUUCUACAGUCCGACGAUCCUUUGCUGAAUUCUAACAUUAAAUCACAGCCCAAAAUUUGAUGGACUAAUUAUUAUUUUAAAAUAUAUGAAGACAAUAAUUCUACAUGUUGUCUUAAGAUGGAAAUACAGUGGAAUUCUCGGGUGCCAA: 0.622

Some of these lines once more (study 1):
GAAACCC: -0.0881
UUCUCCU: -0.479
AUAGCCU: -0.0627
AGAAACU: 0.805
UAAACCA: 0.497
CGCGUAA: -0.18
CUUCGCG: -0.219
CAACAAC: 0.0551
AAUCACC: -0.0319
GACAACA: 0.448
CUCAGAG: -0.164
CCAAUAU: -0.2
GUGGAAU: 0.0569
UCACAGA: 0.0551
GAGAUGA: 0.0515
